Published values of several laboratories.
Each line is one published result; not all experiments were run side by side.
Technique: steady-state kinetics
B1: PRXC1A (Armoracia rusticana, UniProt P00433); chain QLTPTFYDNSCPNVSNIVRDTIVNELRSDPRIAASILRLHFHDCFVNGCDASILLDNTTSFRTEKDAFGNANSARGFPVIDRMKAAVESACPRTVSCADLLTIAAQQSVTLAGGPSWRVPLGRRDSLQAFLDLANANLPAPFFTLPQLKDSFRNVGLNRSSDLVALSGGHTFGKNQCRFIMDRLYNFSNTGLPDPTLNTTYLQTLRGLCPLNGNLSALVDFDLRTPTIFDNKYYVNLEEQKGLIQSDQELFSSPNATDTIPLVRSFANSTQTFFNAFVEAMDRMGNITPLTGTQGQIRLNCRVVNSNS
B2: sacB Y247F (Priestia megaterium, UniProt D5DC07); chain KGNDSKDFNNSYGISHITRDNMVKIPQQQNSDQFKVPAFDESTIKNIASAKGKNASGNTIDLDVWDSWPLQNADGTVATYHGYQIVFALAGDPKDSNDTSVYLFYKKAGDKSIDSWKNAGRVFKDSDKFVPNDPHLKNQTQEWSGSGTLTKDGKVRLFYTDYSGKQYGKQTLTTAQVNMSQPNDNTLKVDGVEDYKSIFDGDGKIYQTVQQFIDEGGFDTGDNHTLRDPHYIEDNGHKYLVFEANTGTEDGYQGEDSLYNRAYYGGNNPFFQSEKKKLLEGSNKEKASLANGALGIIELNDDYTLKKVMKPLITSNTVTDEIERANIFKKDGKWYLFTDSRGSKMTIDGIGQDDVYMLGYVSNTLTGKYKPLNDTGLVLHMDLDPNDKTFTYSHFAVPQTKGDNVVITSYMTNRGFYEDNHSTFAPSFLVNIDGSKTSVVKDRVLEQGQLTVDED
B3: ASRGL1 (Homo sapiens, UniProt Q7L266); chain 1 MNPIVVVHGGGAGPISKDRKERVHQGMVRAATVGYGILREGGSAVDAVEGAVVALEDDPEFNAGCGSVLNTNGEVEMDASIMDGKDLSAGAVSAVQCIANPIKLARLVMEKTPHCFLTDQGAAQFAAAMGVPEIPGEKLVTERNKKRLEKEKHEKGAQKTDCQKNLG; chain 2 TVGAVALDCKGNVAYATSTGGIVNKMVGRVGDSPCLGAGGYADNDIGAVSTTGHGESILKVNLARLTLFHIEQGKTVEEAADLSLGYMKSRVKGLGGLIVVSKTGDWVAKWTSTSMPWAAAKDGKLHFGIDPDDTTITDLP
B4: AtTPS18 G328P (Arabidopsis thaliana, UniProt Q9LUE2); chain STKSSDDLEGSRPSTYFSPSLWGDHFLSVSLDRGEFDELEREIETMKPLVKDMLMSSQSSDKEKIRLIHLLVSLGSSYHFDKEIQDILKHSFTKLDDIIVGEDDLETISIMFEVFRLYGHKMSCDAFDRFRGEDGRFKESLAKDVRGMLQLFEVAHLGTPSEDIMDEASSFAQNHLDSWIGGNVSGATPHLLKHIQNSLYIPRYCNIEVLVAREYISYYEQEEGHNKILLKFAKLNFNFCQFHYIQELKTLTKWWKDLDLASKLPYIRDRLVESHLPGLGPYFEPHYSLGRIIVAKIIMTMVVVDDTYDAHATVPEVAVLTECLQRLNIGADDKLPDYLRTVLESVFEVMGEIEQEMRPKGRSYGVKQVLERFKNVAKADKQLTEWARTGDVPSFDEYMKVGLVTAGMDGYAGYCFIGMEDVSEKEAFEWLSSNPLIIQALNVMFRLANDVGTYETEINRGEVANGLNCYMKQYGVTKEEASQELRKIYSNNKKVVMEEFMNSHDHVPRQVLLRCLNFARLFDVMYTEGDGYSEPKGKIEHFMTSLYVHPIPLS
B5: TBM M536C (Drosophila melanogaster, UniProt Q86B61); chain TFMPVMLLLLMATLLTRPLSAFSNRLSDTKLHEIYLDDKEIKLSWMVDWYKQEVLFHLQNAFNEQHRWFYLGFSKRGGLADADICFFENQNGFFNAVTDTYTSPDGQWVRRDYQQDCEVFKMDEFTLAFRRKFDTCDPLDLRLHEGTMYVVWARGETELALEDHQFALPNVTAPHEAGVKMLQLLRADKILIPETELDHMEITLQEAPIPSQETTYWCHVQRLEGNLRRRHHIVQFEPLIRTPGIVHHMEVFHCEAGEHEEIPLYNGDCEQLPPRAKICSKVMVLWAMGAGTFTYPPEAGLPIGGPGFNPYVRLEVHFNNPEKQSGLVDNSGFRIKMSKTLRQYDAAVMELGLEYTDKMAIPPGQTAFPLSGYCVADCTRAALPATGIIIFGSQLHTHLRGVRVLTRHFRGEQELREVNRDDYYSNHFQEMRTLHYKPRVLPGDALVTTCYYNTKDDKTAALGGFSISDECCVNYIHYYPATKLEVCKSSVSEETLENYFIYMKRTEHQHGVHLNGARSSNYRSIEWTQPRIDQLYTMYMQEPLSMQCNRSDGTRFEGRSSWEGVAATPVQIRIPIHRKLCPNYNPLWLKPLEKGDCDLLGECIY
B6: enzyme (Mortierella alpina, UniProt U5Y6A8); chain MAPPHVVDEQVRRRIVVEDEIQSKKQFERNYVPMDFTIKEIRDAIPAHLFIRDTTKSILHVVKDLVTIAIVFYCATFIETLPSLALRVPAWITYWIIQGTVMVGPWILAHECGHGAFSDSKTINTIFGWVLHSALLVPYQAWAMSHSKHHKGTGSMSKDVVFIPATRSYKGLPPLEKPAAEEEVLEQEHHHHEESIFAETPIYTLGALFFVLTLGWPLYLIMNFSGHEAPHWVNHFQTVAPLYEPHQRKNIFYSNCGIVAMGSILTYLSMVFSPLTVFMYYGIPYLGVNAWIVCITYLQHTDPKVPHFRDNEWNFQRGAACTIDRSFGTIVNHLHHHIGDSHQCHHMFSQMPFYNAVEATKHLKAKLGKYYIFDDTPIAKALYRNWRECKFVEDEGDVVFYKH
B7: carbamoyl phosphate synthetase large subunit M378E (Escherichia coli, UniProt P00968); chain PKRTDIKSILILGAGPIVIGQACEFDYSGAQACKALREEGYRVILVNSNPATIMTDPEMADATYIEPIHWEVVRKIIEKERPDAVLPTMGGQTALNCALELERQGVLEEFGVTMIGATADAIDKAEDRRRFDVAMKKIGLETARSGIAHTMEEALAVAADVGFPCIIRPSFTMGGSGGGIAYNREEFEEICARGLDLSPTKELLIDESLIGWKEYEMEVVRDKNDNCIIVCSIENFDAMGIHTGDSITVAPAQTLTDKEYQIMRNASMAVLREIGVETGGSNVQFAVNPKNGRLIVIEMNPRVSRSSALASKATGFPIAKVAAKLAVGYTLDELMNDITGGRTPASFEPSIDYVVTKIPRFNFEKFAGANDRLTTQEKSVGEVMAIGRTQQESLQKALRGLEVGATGFDPKVSLDDPEALTKIRRELKDAGADRIWYIADAFRAGLSVDGVFNLTNIDRWFLVQIEELVRLEEKVAEVGITGLNADFLRQLKRKGFADARLAKLAGVREAEIRKLRDQYDLHPVYKRVDTCAAEFATDTAYMYSTYEEECEANPSTDREKIMVLGGGPNRIGQGIEFDYCCVHASLALREDGYETIMVNCNPETVSTDYDTSDRLYFEPVTLEDVLEIVRIEKPKGVIVQYGGQTPLKLARALEAAGVPVIGTSPDAIDRAEDRERFQHAVERLKLKQPANATVTAIEMAVEKAKEIGYPLVVRPSYVLGGRAMEIVYDEADLRRYFQTAVSVSNDAPVLLDHFLDDAVEVDVDAICDGEMVLIGGIMEHIEQAGVHSGDSACSLPAYTLSQEIQDVMRQQVQKLAFELQVRGLMNVQFAVKNNEVYLIEVNPRAARTVPFVSKATGVPLAKVAARVMAGKSLAEQGVTKEVIPPYYSVKEVVLPFNKFPGVDPLLGPEMRSTGEVMGVGRTFAEAFAKAQLGSNSTMKKHGRALLSVREGDKERVVDLAAKLLKQGFELDATHGTAIVLGEAGINPRLVNKVHEGRPHIQDRIKNGEYTYIINTTSGRRAIEDSRVIRRSALQYKVHYDTTLNGGFATAMALNADATEKVISVQEMHAQIK
B8: protein Y93W (Thermus thermophilus, UniProt Q5SKR5); chain MSAPKPFVIGIAGGTASGKTTLAQALARTLGERVALLPMDHYYKDLGHLPLEERLRVNYDHPDAFDLALYLEHAQALLRGLPVEMPVYDFRAWTRSPRRTPVRPAPVVILEGILVLYPKELRDLMDLKVFVDADADERFIRRLKRDVLERGRSLEGVVAQYLEQVKPMHLHFVEPTKRYADVIVPRGGQNPVALEMLAAKALARLARMGAA
Sequence of UniProt O15439 (whole entry, looked up): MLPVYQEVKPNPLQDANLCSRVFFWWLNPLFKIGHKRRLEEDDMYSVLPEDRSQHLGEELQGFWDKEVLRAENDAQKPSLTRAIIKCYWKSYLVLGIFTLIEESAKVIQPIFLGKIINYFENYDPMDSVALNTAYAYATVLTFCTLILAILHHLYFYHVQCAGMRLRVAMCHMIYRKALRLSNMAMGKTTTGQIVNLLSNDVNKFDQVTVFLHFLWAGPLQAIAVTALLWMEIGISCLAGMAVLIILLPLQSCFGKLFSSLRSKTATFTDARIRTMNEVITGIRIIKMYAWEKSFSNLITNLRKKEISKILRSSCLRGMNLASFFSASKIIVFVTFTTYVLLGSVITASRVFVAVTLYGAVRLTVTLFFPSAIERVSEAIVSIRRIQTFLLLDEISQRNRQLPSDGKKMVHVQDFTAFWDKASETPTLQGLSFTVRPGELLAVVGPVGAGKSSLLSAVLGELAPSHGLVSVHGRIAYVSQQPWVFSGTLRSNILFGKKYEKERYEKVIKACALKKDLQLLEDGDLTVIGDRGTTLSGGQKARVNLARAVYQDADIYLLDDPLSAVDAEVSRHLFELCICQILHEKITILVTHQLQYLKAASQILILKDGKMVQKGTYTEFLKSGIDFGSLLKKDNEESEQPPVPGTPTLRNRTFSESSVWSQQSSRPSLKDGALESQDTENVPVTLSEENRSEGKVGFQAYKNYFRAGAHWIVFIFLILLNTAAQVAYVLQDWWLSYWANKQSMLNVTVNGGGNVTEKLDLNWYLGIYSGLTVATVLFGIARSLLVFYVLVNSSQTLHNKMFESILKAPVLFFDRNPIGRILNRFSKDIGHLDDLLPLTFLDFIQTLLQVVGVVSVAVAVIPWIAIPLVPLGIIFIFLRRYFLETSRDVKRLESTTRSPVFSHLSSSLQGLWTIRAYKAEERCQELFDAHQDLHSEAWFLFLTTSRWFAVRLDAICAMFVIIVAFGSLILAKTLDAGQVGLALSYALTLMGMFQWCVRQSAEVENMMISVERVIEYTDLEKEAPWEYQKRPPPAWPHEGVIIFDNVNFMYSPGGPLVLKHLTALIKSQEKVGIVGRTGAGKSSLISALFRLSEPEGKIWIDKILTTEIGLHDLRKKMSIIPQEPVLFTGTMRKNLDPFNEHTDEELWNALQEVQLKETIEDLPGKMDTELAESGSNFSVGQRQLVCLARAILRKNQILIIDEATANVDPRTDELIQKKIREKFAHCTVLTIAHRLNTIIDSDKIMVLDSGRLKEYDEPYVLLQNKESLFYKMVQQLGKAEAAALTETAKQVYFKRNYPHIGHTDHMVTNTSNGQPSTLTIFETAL
Sequence of UniProt P76044 (whole entry, looked up): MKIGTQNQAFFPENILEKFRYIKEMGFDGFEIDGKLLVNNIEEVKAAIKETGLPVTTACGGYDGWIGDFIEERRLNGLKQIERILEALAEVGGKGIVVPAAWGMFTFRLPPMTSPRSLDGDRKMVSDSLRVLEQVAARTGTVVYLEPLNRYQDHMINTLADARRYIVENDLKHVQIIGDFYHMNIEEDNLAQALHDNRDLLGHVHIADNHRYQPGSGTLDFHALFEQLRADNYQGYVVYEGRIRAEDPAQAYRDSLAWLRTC
Sequence of UniProt Q8QZR1 (whole entry, looked up): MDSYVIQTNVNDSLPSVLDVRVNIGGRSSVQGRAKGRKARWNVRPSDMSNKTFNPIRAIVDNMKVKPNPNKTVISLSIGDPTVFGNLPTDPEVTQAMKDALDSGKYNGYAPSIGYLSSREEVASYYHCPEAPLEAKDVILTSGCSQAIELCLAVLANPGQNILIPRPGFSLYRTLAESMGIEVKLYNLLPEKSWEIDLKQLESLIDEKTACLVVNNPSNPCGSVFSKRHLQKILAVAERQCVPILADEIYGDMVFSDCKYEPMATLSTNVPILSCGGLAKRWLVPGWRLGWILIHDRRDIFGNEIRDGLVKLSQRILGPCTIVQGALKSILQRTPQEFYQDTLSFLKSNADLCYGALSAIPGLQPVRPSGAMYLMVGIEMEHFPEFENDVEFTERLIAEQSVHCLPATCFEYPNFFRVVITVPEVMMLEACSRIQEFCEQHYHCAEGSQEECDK

Molecule | substrate | conditions | Km [µM]
ycjR (Escherichia coli, UniProt P76044) | CO[C@H]1O[C@H](CO)[C@@H](O)C(=O)[C@H]1O | pH 8, 30 °C, with: MnCl2 0.5 mM, NADH 0.3 mM | 37000
Tat (Mus musculus, UniProt Q8QZR1) | N[C@@H](Cc1ccccc1)C(=O)O | pH 7, 38 °C, 100 mM phosphate, with: 10 mM KGA; PLP | 11400
B1 (PRXC1A) | CCn1c(=NN=c2sc3cc(S(=O)(=O)O)ccc3n2CC)sc2cc(S(=O)(=O)O)ccc21 | pH 7, 25 °C, apparent | 960
ABCC4 (Homo sapiens, UniProt O15439) | Cc1nc2ccc(CN(C)c3ccc(C(=O)N[C@@H](CCC(=O)O)C(=O)O)s3)cc2c(=O)[nH]1 | pH 7.4, 37 °C, not purified, with: ATP 5 mM | 43.7
B2 (sacB Y247F) | OC[C@H]1O[C@@](CO)(O[C@H]2O[C@H](CO)[C@@H](O)[C@H](O)[C@H]2O)[C@@H](O)[C@@H]1O | pH 6.9 | 21900
B3 (ASRGL1) | COC(=O)C[C@H](N)C(=O)O | pH 7.4, 37 °C, NaCl 100 mM | 400
protein (Candidatus Protochlamydia amoebophila, UniProt Q6MEN4) | Nc1nc2c(ncn2[C@@H]2O[C@H](COP(=O)(O)OP(=O)(O)OP(=O)(O)O)[C@@H](O)[C@H]2O)c(=O)[nH]1 | pH 7, 30 °C, transporter, labelled substrate, apparent, not purified | 156
B4 (AtTPS18 G328P) | CC(C)=CCC/C(C)=C/CC/C(C)=C/CC/C(C)=C/CC/C(C)=C/COP(=O)(O)OP(=O)(O)O | pH 7.5, 30 °C, product C5 measured, with: Mg2+ 10 mM | 1.28
protein (Lodderomyces parapsilosis, UniProt G8BA04) | CC(=O)C(=O)O | pH 7.5, 25 °C, apparent, with: methylamine 50 mM, NADPH 0.2 mM | 15000
B5 (TBM M536C) | NCCc1ccc(O)cc1 | pH 6, 35 °C, KCl 0.1 M, apparent Km, apparent, with: ascorbate 50 mM, CuSO4 15 µM | 4600
B6 (enzyme) | CCCCC/C=C\C/C=C\C/C=C\C/C=C\CCCC(=O)SCCNC(=O)CCNC(=O)[C@H](O)C(C)(C)COP(=O)(O)OP(=O)(O)OC[C@H]1O[C@@H](n2cnc3c(N)ncnc32)[C@H](O)[C@@H]1OP(=O)(O)O | pH 7.5, 28 °C | 157
B7 | Nc1ncnc2c1ncn2[C@@H]1O[C@H](COP(=O)(O)OP(=O)(O)OP(=O)(O)O)[C@@H](O)[C@H]1O | pH 7.6, KCl 100 mM, with: glutamine 10 mM, ornithine 10 mM | 160
B8 (protein Y93W) | Nc1ccn([C@@H]2O[C@H](CO)[C@@H](O)[C@H]2O)c(=O)n1 | pH 7.2, 25 °C, KCl 100 mM, with: ATP 100–200 µM | 71

For quick reference, copied from above:
Molecule | substrate | conditions | Km [µM]
B1 (PRXC1A) | CCn1c(=NN=c2sc3cc(S(=O)(=O)O)ccc3n2CC)sc2cc(S(=O)(=O)O)ccc21 | pH 7, 25 °C, apparent | 960
B7 | Nc1ncnc2c1ncn2[C@@H]1O[C@H](COP(=O)(O)OP(=O)(O)OP(=O)(O)O)[C@@H](O)[C@H]1O | pH 7.6, KCl 100 mM, with: glutamine 10 mM, ornithine 10 mM | 160
